# Measured values collected from several papers.
# Each numbered part is a random draw from the data of one study; scales do not carry over between parts.

# Set 1
# Target: Sal-like protein 4, full length isoform A (SALL4, Homo sapiens, UniProt Q9UJQ4, residues 1-1053)
# UniProt Q9UJQ4, sequence (whole entry, looked up): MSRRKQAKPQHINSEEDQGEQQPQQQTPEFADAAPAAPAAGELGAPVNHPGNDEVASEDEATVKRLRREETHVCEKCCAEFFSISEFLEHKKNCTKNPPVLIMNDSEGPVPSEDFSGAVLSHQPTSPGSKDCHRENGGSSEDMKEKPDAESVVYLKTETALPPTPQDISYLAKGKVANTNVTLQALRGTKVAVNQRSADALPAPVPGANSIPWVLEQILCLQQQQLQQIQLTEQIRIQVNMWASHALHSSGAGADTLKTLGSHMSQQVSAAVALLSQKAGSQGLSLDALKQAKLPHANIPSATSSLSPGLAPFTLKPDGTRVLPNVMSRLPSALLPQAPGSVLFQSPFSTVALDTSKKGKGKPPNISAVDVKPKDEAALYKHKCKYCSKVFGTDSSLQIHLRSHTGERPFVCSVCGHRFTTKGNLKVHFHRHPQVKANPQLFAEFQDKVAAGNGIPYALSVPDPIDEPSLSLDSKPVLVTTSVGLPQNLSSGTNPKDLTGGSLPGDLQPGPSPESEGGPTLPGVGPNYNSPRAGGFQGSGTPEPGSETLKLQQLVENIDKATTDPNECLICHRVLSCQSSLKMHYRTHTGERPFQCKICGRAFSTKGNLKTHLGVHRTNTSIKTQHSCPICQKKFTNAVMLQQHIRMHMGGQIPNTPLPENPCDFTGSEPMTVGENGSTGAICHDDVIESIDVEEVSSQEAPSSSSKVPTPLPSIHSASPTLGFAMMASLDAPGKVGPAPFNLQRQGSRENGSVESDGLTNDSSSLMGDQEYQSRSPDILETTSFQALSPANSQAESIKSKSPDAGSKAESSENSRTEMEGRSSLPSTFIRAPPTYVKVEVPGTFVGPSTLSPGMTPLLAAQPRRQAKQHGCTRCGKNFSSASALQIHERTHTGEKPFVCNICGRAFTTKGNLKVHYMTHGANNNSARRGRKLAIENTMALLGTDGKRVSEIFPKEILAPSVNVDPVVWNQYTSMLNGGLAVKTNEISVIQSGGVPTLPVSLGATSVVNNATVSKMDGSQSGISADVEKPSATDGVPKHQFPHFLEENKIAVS
# Method: universal PBM
# Form: double-stranded DNA, one strand shown
# Matrix: in vitro
# Concentration: 600 nM
# Setting: 8-mer, flanks averaged, mean of replicates
# Reading: higher = stronger binding
Strand,E-score
CTCACAGA,0.0909
TTACACAA,0.269
AGCGGAGG,-0.211
GTGCTAAA,0.0917
CTGAAATC,0.101
AGAGGGCA,-0.168
CTTCGAGC,-0.209
CGTGCGTC,-0.168
TAAAGGAA,0.15
GACGCGAA,-0.0345
CGTCGGAG,-0.222
CTAGCACC,-0.264
GTAATCAC,0.081
TGATCGCA,0.0755
AGTGCAGA,-0.0521
CTGGCTAA,-0.0973
CCTCACGA,-0.207
CCCATGAA,0.0295
GACGAGCA,0.0123
AACGACTT,0.0211
ATCGGGCA,-0.241
ACAGATTA,0.0246
ACAGGTAG,-0.0467
AGTACATC,0.114
AGACCGAT,-0.0979

# Set 2
# Target: Prothrombin, mature alpha-thrombin (F2, Homo sapiens, UniProt P00734)
# Method: aptamer microarray, sandwich
# Form: DNA with 2'F-ANA
# Matrix: in vitro
# Concentration: 200 nM
# Setting: whole 15-mer aptamer, many near background
# With: Cy3 exosite-II aptamer, 400 nM
# Reading: higher = stronger binding
# Strand: GGTTGGTGTGGTTGG
Modification,mean fluorescence intensity
2'F-ANA at 5 8 9 11 13 14,48.4 a.u.
2'F-ANA at 5 6 9 10 11 14 15,55.5 a.u.
2'F-ANA at 2 4 5 6 9 10 15,44.3 a.u.
2'F-ANA at 3 5 7 8 10 12,86 a.u.
2'F-ANA at 2 3 6 7 8 11 13 15,564 a.u.
2'F-ANA at 3 4 6 9 12 14 15,296 a.u.
2'F-ANA at 1 3 7 8,420 a.u.
2'F-ANA at 1 5 9 12 15,129 a.u.
2'F-ANA at 1 5 9 10 11 14 15,46.5 a.u.
2'F-ANA at 4 5 10 12 15,58.3 a.u.
2'F-ANA at 1 5 6 8 9 10 11 12 14,48 a.u.
2'F-ANA at 2 3 4 10 12 13 15,275 a.u.
2'F-ANA at 1 3 4 6 7 8,276 a.u.
2'F-ANA at 1 3 4 8 9 11 12 15,355 a.u.
2'F-ANA at 2 4 5 7 9 11 12 13,75.4 a.u.
2'F-ANA at 1 2 3 4 7 9 10 13 14 15,96.2 a.u.
2'F-ANA at 1 2 5 6 9 12 13 15,69.1 a.u.
2'F-ANA at 1 3 4 5 6 7 10 11 12 13 15,62.9 a.u.
2'F-ANA at 1 2 5 9 10 11 12 13 14 15,45.8 a.u.
2'F-ANA at 7 8 13 14,211 a.u.
2'F-ANA at 1 3 4 9 11,170 a.u.

# Set 3
# Target: Histone acetyltransferase KAT6A, winged helix 1, GST fusion (KAT6A, Homo sapiens, UniProt Q92794, residues 1-85)
# Method: protein binding microarray
# Form: double-stranded DNA, one strand shown
# Matrix: in vitro
# Concentration: not given
# Setting: 8-mer, flanks averaged, mean of 2 arrays, mostly near background
# Reference: not given
# Reading: higher = stronger binding
# Residues (chain): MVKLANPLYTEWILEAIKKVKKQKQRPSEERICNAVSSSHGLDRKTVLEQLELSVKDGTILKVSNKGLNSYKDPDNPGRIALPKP
Strand,E-score
CACAGTAG,-0.176
CGGCCTTC,0.336
AACGCTAT,0.0649
ACCATACA,-0.0794
AGTCACCC,-0.00945
ACGCATGA,0.0699
ACGGGGTG,0.18
ACTAGTCA,-0.193
CCCACCAA,-0.232
CGATTGCC,0.191
CCCGGACC,0.0192
AGCTTAAG,-0.261
GAAGCAGA,-0.328
ACTAACGA,-0.101
AAAGATCA,-0.0861
AAGGCGTC,0.145
CAAGAAGC,0.051

# Set 4
# Target: Phosphate system positive regulatory protein PHO4, full length, GST-tagged (PHO4, Saccharomyces cerevisiae, UniProt P07270, residues 1-312)
# Method: competition protein-binding microarray
# Form: double-stranded DNA, one strand shown
# Matrix: in vitro
# Concentration: 2 µM
# Setting: whole 60-bp probe, lowest competitor level
# With: Cbf1 competitor, 0.05 µM
# Reading: higher = stronger binding
# Shared flanks, not repeated: … GTCTTGATTCGCTTGACGCTGCTG
# Target sequence (chain): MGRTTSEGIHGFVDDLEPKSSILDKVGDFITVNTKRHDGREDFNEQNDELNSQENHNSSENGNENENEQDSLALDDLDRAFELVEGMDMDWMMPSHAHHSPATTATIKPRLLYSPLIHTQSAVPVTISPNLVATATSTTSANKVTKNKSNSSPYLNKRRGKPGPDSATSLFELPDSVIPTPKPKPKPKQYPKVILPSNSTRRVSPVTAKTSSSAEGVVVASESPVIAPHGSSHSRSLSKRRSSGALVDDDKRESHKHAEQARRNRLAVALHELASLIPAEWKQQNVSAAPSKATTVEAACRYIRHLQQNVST
Strand,fluorescence intensity [a.u.]
CTAACGAAGGTTTGTTTTGTGGGTGACAAGCCAAGT,3830
CTAACGAAGGTTTGGATTGTGGGTGACAAGCCAAGT,4240
AAAGATTTGATAAAGCACGTGTCGGATTAGATGCTT,20000
CGGGGTTAAGTTTGTGAGGTGGGTGGCTTGCAGCAG,5130
ACACTTCTGAGCGGCCACGTGTAGAGGGGTAAGCTA,16500
TTCTGTAGGTTATACCATGTGCTAAATGTAGTGGTC,9980
ATAGCAGCCTATGGACACGGGATACAGTACCAGCAA,6660
CAAGGATACTAGAACCATGTGAGAATCGGTACCGTT,5290
CGTCCTAGTGATTGCGTCGTGGGTGCCATGAGGAAG,10600
GCCGCAAAATCCTCCATCGTGCTTTATATTTCGTCT,10100
TCTAGTGATACCCATCACGTGCCAGTGATACTTGCG,18000
TGCGCAACAACTTGGTAAGTGGGTGTATGTCTAGAA,4370
CTTCTGTAAATTTGTCACCTGACTTGACGCGCCCCG,3630
CATACCCAACCTTGTCACGCTACTTAAGATATTTGT,6840
AGAAAAAAATCATCAAATGTGACGGGCAAATGGGGC,3980
TGCGAGATATACCATCACGTGAGGTGGATTTGATCT,12800
TGATGACCAAGTTGCCACGTGTCCTCTAGTGGCAGG,16900
TCGGTTACGTACGATAACGTGATTGTGCCACAGGAG,7850
AGGAAAACAAATGAATGCGTGCCGAAAGCGGAAAAT,11200
ACTATGATATTATTCCATGTGTCGCAAAACCAGAAA,8260
CATTGGTGTCGTCATCACCTGATGCAGTTGGAGTCG,4210
CTTTCCCGATCTTTTCACGTGCGGTTAGCACATTTG,14600
GCCCTGTAATGAAGCTGCGTGATGGGACCTGTGCCC,5820
AAGCTACATATAAGGAACGTGCTTTTACTCATCCTA,13900
GGTTCTCAAAGCAGCAACGTGCTTTCTGCCACCGTT,16200

# Set 5
# Target: Interferon regulatory factor 3, full length, phosphomimetic (IRF3, Homo sapiens, UniProt Q14653, residues 1-427, S386D/S396D/S398D/S402D/T404D/S405D)
# Method: protein-binding microarray
# Form: double-stranded DNA, one strand shown
# Matrix: in vitro
# Concentration: 2540 nM top
# Setting: 60-bp whole probe
# With: salmon DNA 0.4 mg/ml
# Reference: random background probes
# Reading: higher = stronger binding
# Shared flanks, not repeated: GCCTAGCAC … GTCTTGATTCGCTTGACGCTGCTG
# Target sequence (chain): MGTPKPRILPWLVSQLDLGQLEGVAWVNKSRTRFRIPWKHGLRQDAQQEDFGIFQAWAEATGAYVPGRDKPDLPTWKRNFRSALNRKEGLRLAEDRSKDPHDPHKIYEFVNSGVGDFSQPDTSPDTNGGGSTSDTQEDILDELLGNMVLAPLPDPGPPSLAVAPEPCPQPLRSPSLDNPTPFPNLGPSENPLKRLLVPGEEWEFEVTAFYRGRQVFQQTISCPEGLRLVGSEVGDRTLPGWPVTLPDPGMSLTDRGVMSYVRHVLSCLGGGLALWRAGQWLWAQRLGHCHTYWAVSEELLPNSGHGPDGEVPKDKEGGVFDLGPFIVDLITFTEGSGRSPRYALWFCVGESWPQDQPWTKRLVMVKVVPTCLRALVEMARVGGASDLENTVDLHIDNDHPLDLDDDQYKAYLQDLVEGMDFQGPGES
Strand,fitted relative affinity
TCAATTTTGGTTTTCCTACTGTGCTAG,3.28 z-score
TCATGTATGGATGTGTCACTGTGCTAG,-0.325 z-score
TTAGGTATCGGTATCCGTTAGTGCTAG,5.06 z-score
GACGGACTGGGGTATCGGGAAGTGCTA,-0.642 z-score
TTAAGTATCGGTCTCGGTTAGTGCTAG,5.08 z-score
GTAGAACTGAGTATCGATTAGTGCTAG,0.0948 z-score
TTCATTTTCCAAATGCCCTCGTGCTAG,4.16 z-score
GACGATTTCAGACTGGAGAAGTGCTAG,1.05 z-score
GACGGTTTCCTTCTCCTGAAGTGCTAG,10 z-score
CCCTGGCTCCCTATAAAAGGGTGCTAG,0.163 z-score
GACGGTCTCCTTTTACTGACGTGCTAG,4.3 z-score
GACGATATCGGGTATCGAAACGTGCTA,0.808 z-score
TTAGGGATCGGGTTTCGGTTAGTGCTA,2.91 z-score
GACGGTATCGACTATCGGGTCGTGCTA,0.673 z-score
TCAGATATGCCAAATCTGACTGTGCTA,0.121 z-score
TCAATTTTGCTTCTAGAACTGTGCTAG,1.15 z-score
TACTTTCTATCTCTGTTTTTGTGCTAG,4.79 z-score
GACGGACTGAGTCTCGGGACGTGCTAG,-0.599 z-score
TTAGGTCTCCTTGTCCTTTAGTGCTAG,0.993 z-score

# Set 6
# Target: RNA binding protein fox-1 homolog 2, RRM domain, GST-SBP tag (RBFOX2, Homo sapiens, UniProt O43251-10, residues 100-194)
# Method: RNA Bind-n-Seq
# Form: RNA
# Matrix: in vitro
# Concentration: 365 nM
# Setting: natural RNA segment, single round, ends assumed
# Reference: no-protein control
# Reading: higher = stronger binding
# Shared flanks, not repeated: GGGAGUUCUACAGUCCGACGAUC … UGGAAUUCUCGGGUGCCAA
# Construct (chain): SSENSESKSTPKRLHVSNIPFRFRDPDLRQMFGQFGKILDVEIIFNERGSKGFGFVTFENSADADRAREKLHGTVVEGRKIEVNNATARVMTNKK
Strand,RBNS enrichment (R)
UCUUUAGGCAGCUCUGCCUUAACCCAGGUUUCGUGUAAGAAACUUAACCUUCUCCCUUCCUACCAAUUUUUGUGUGAUCUUUUAGAAAAUAAAUAUUUCUGACAUUAAUG,0.464
GCCAAGCUGACUGUGGUAUGUAGCCACUUCAGGGGUUGCGCUUCUCACUAGGUUGGCGGUACAUGUGGCCUUGUGCCCACCCCCAUCCCCAUUGUAGUCAGGUUCCCAGG,0.336
CUUCAACCUCCCGUGCCUCGUUUCCUCCCUCUGUAGCAUGGGGCUCGAGACUCCUGUUUGUGAGGGACUCUUACAAGGAUAAGAGCAAGGCCACACCACUUCCGCUGUGU,0.704
AACUGGACUGUGAGUCUCUUGGUUCAGUAUUAGGUUCACUUUAUUUAUACUGUAAGUUAUUUUACUUCCCCUGGGACCCUUUCCAGUCCUCGUUUUACAUUCAUUCCUCU,0.65
UAAAUAUAUGGGAGACUGAUUAUAAAGAAUAAAGAAUAUUUGCAUUUACUUAUGCAACUACUAAUUUAAAUACUUUCCAGAAGUGGGAUACAUAAAGCUAUGGUUUAAUA,0.689
GGCAUCCCAAGUGGGGUCCUCACCCAUCCCAGCUACUGCAGCUCUGUAUUACUUUGUCAUUUCCUGUUGUCUCACUCCUGAGGGCUCCUGCAGUAACUCUGUACUUCUCU,0.526
AUUUUCACAUCCUUCCAUGUAUUUAUCUUGAAGAGAUAAGCACAGAAGAGAAGGUGCUCACUAACAGAGGUACAUUACUGCAAUGUUCUCUUAACAGUUAAACAAGCUGU,0.273
UUCUAUAUGGUAGAAUUACCAAAAGCUAUUCAGAUUUCUUAAUAAAGGGCAAAUCAACCAAGCCUGACAUCAUGUGCAGUGUGUUCUUUUGUGACGUGCAAAGGUCACAU,0.54
UCAUCCUUGCUACUUGAGGCUGUUAUUUCCCUCCGAGUAUUUAAGGAGCCCAAACACCUUGGUCUUCCUGGGUGGGGGCAUAAUUAAGGGAAGGGAGUGUAUAAGGAAGG,0.281
UCAACCCCACCCUGUUUGGAUUUUUAAUUAAAAUCUAGUAGUUCUCUUGGUAUUAAAACACUUCUGUCCUGUGAGGUUUUCCCAAUGGUGUUUUUCUUGUAAAUGUGUUG,0.984
AGUAUUGUCUCUUAGUUAAGUAUGAUUUAUUAACCCAGUGGAGCACUGUCUGCUUUUAAAUUGUCACAUUAGAAUUUGUUCUACCAAUGUUUUGGGUUCUGUUGCGCUAU,0.617
AAAGGAAAAAAAAAGCAGGUUUGAACGAUCACUUUGUGGCCUCCUGGCCACUUUUAGACAUUAUCAUUUUGCCUCAGGUUGGAGGACUUUGUGGAAUUUAAGAAAUACAU,0.483

# For quick reference, copied from above (set 1):
Strand,E-score
TGATCGCA,0.0755
ATCGGGCA,-0.241
CCCATGAA,0.0295
CGTGCGTC,-0.168
AGAGGGCA,-0.168
AGTACATC,0.114
CTGGCTAA,-0.0973
GACGAGCA,0.0123
GTGCTAAA,0.0917
CTGAAATC,0.101
CTAGCACC,-0.264
TAAAGGAA,0.15
GACGCGAA,-0.0345
TTACACAA,0.269
CTTCGAGC,-0.209
AGCGGAGG,-0.211
CTCACAGA,0.0909
AGACCGAT,-0.0979
AACGACTT,0.0211
